Measured values collected from several papers.
Numbers after ± are the reported error.
S1PR1: Sphingosine 1-phosphate receptor 1 (S1PR1, Homo sapiens, UniProt P21453)
SNCA pre-formed fibrils: Alpha-synuclein, pre-formed fibrils (SNCA, Homo sapiens, UniProt P37840)
Urease: Urease (Canavalia ensiformis, UniProt P07374)
PDE1C: Dual specificity calcium/calmodulin-dependent 3',5'-cyclic nucleotide phosphodiesterase 1C (PDE1C, Homo sapiens, UniProt Q14123)
crk3 with CYC6: crk3, with CYC6 (Leishmania mexicana, UniProt O15851)
SYK tandem SH2 domains: Tyrosine-protein kinase SYK, tandem SH2 domains (SYK, Homo sapiens, UniProt P43405)
KDR: Vascular endothelial growth factor receptor 2 (KDR, Homo sapiens, UniProt P35968)

Structure (SMILES)	target	assay	system	conditions	IC50 [µM]
CSc1cc(C)[nH]c(=O)c1CNC(=O)c1c(C)n(C(C)C2CCC(NC3(C)COC3)CC2)c2ccccc12 (stereo not shown)	Histone-lysine N-methyltransferase EZH2, PRC2 pentameric complex (EZH2, Homo sapiens, UniProt Q15910)	enzyme activity, inhibitor		with: H3K27me3 activating peptide	0.00011
C[C@@H](C(=O)O)n1nc(Cn2cc3cc(OCCF)c(Cl)cc3n2)c2ccccc2c1=O	S1PR1	ligand displacement, radioligand		cell membranes	> 1
Cc1cc(C(=O)Nc2nc3cccc(C)c3n2[C@H]2CCCCN(C(=O)/C=C/CN(C)C)C2)ccn1	CLK1 (Homo sapiens, UniProt P49759)	ADP-Glo		10 min pre-incubation, with: ATP 10 µM	0.825
O=C(Nc1ccc(C(=O)NO)cc1)OCc1ccc2ccccc2c1	SNCA pre-formed fibrils	binding to RAGE, inhibitor, ELISA		with: FLAG-α-syn PFFs 100 nM	4.38
CCn1nc(Cl)c2c1-c1cnc(N)c(c1)O[C@H](C)c1cc(F)ccc1-c1nn(C)cc1C2	PTK2B (Homo sapiens, UniProt Q14289)	enzyme activity, inhibitor, radiometric			0.014
Nc1ncc(-c2cc(-c3cnn(CC(F)(F)F)c3)ncc2F)nc1C(=O)NC1CNCC(F)C1 (stereo not shown)	MKNK2 (Homo sapiens, UniProt Q9HBH9)	enzyme activity, inhibitor, radiometric			0.209
COc1cc(OC)c(/N=N/c2c(Cl)cc(C(=O)NO)cc2Cl)c(OC)c1	Urease	enzyme activity, inhibitor, absorbance		pH 7.3	> 512
CCN(CC)CC(=O)Nc1cccc(-n2cc(-c3ccc4ccc(-c5cn(-c6cccc(NC(=O)CN(CC)CC)c6)nn5)cc4c3)nn2)c1	MAP4K4 (Homo sapiens, UniProt O95819)	enzyme activity, inhibitor			> 10
CC(C)C[C@H](NC(=O)[C@H](Cc1ccc(CN)cc1)NC(=O)[C@H](Cc1ccccc1)N=[N+]=[N-])C(=O)N[C@@H](CCC1CCCCC1)C(=O)[C@@]1(C)CO1	Proteasome subunit beta type-10 (Homo sapiens, UniProt P40306)	inhibitor, biochemical			0.0134
COc1cc(OC)c2c(=O)cc(-c3cc(C)c(OCCCN4CCN(C)CC4)c(C)c3)oc2c1	Bromodomain-containing protein 2, BD1 (BRD2, Homo sapiens, UniProt P25440)	cell-free assay, TR-FRET			1.28
CCOc1cc(-c2cc(CN3c4ccccc4C=Cc4ccccc43)on2)ccc1Cl	Urease	enzyme activity, inhibitor			27
CC(C)(C)n1ncc2c(=O)n(Cc3cccc(F)c3)c(NCc3ccc(C(F)(F)F)nc3)nc21	PDE1C	enzyme activity, inhibitor, radiometric			0.0039
C=C(C)C(=O)N(c1ccc(Cl)nc1Cl)C(C(=O)NCCCOc1ccc2c(-c3ccccc3C(=O)OCC)c3ccc(=O)cc-3oc2c1)c1ccc(OC(C)=O)cc1 (stereo not shown)	ALOX15 (Homo sapiens, UniProt P16050)	enzyme activity, inhibitor, absorbance			> 100
N#Cc1ccccc1-c1cc(CN2c3ccccc3C=Cc3ccccc32)on1	Urease	enzyme activity, inhibitor			15.6
COc1cc(OC)c(/N=N/c2cccc(C(=O)NO)c2)c(OC)c1	Urease	enzyme activity, inhibitor, absorbance		pH 7.3	86
NC(=O)c1cccc(-c2cnn3ccc(Nc4ccc(N5CCOCC5)cc4)nc23)c1	crk3 with CYC6	enzyme activity, inhibitor, radiometric		with: Leishmania major CYC6 cyclin, 1 µM ATP	0.26
Cc1n[nH]c(=O)n1C	SYK tandem SH2 domains	binding, inhibitor, TR-FRET		with: FITC-FCER1G phospho-ITAM peptide	> 100
Cc1ccc(-c2cc(CN3c4ccccc4C=Cc4ccccc43)on2)cc1	Urease	enzyme activity, inhibitor			> 27
CC(C)C[C@H](NC(=O)[C@@H](NC(=O)[C@H](Cc1ccccc1)NC(=O)c1ccc(C(C)(C)C)cc1)C(C)(C)C)C(=O)N[C@@H](CCCCN(C)C1CC2CCC1C2)C(=O)N[C@@H](CO)C(N)=O (stereo partly shown)	Chromobox protein homolog 7 (Homo sapiens, UniProt O95931)	ligand displacement, TR-FRET			> 30
CC(C)n1c(N(C)C)nc2c1c(=O)[nH]c(=O)n2C	SYK tandem SH2 domains	binding, inhibitor, TR-FRET		with: FITC-FCER1G phospho-ITAM peptide	> 100
O=C(Nc1cc(C2CC2)[nH]n1)C1CCC1	crk3 with CYC6	enzyme activity, inhibitor, radiometric		with: Leishmania major CYC6 cyclin, 1 µM ATP	2.1
CSC(=S)N/N=C(\C)c1ccc(Nc2nnc(-c3ccc(Cl)cc3)c3ccccc23)cc1	KDR	cell-free assay, inhibitor			0.892
CN1CCC(n2cc(-c3ccc4cc(NC(=O)Nc5cccc(C(=O)NO)c5)ccc4c3)cn2)CC1	SNCA pre-formed fibrils	binding to RAGE, inhibitor, ELISA		with: FLAG-α-syn PFFs 100 nM	1.58
Cc1nn(-c2cccc(N)c2)c(=O)c2cnc(Nc3ccc(N4CCNCC4)cc3)nc12	PDGFRB (Homo sapiens, UniProt P09619)	enzyme activity, inhibitor			2.23
CN1CCN(c2ccc3cc(NC(=O)Nc4cccc(C(=O)NO)c4)ccc3c2)CC1	SNCA pre-formed fibrils	binding to mouse LAG3 D1, inhibitor, ELISA		with: FLAG-α-syn PFFs 100 nM	4.94

Structure (SMILES)	target	assay	system	conditions	IC50 [µM]
O=[N+]([O-])c1ccc(O)c(/C=N/Nc2ccccc2)c1	KDR	enzyme activity, inhibitor, ATP luminescence			4.06
COc1cc(O)c2c(c1)CCC21C=CC(=O)CC1 (stereo not shown)	rat intestinal maltase	inhibitor	rat intestinal acetone powder	10 min, 37 °C, with: maltose 10 mM	1020 ± 90
CCC1(CC)CC(=O)N(C2CCOc3ccc(C(=O)NC4CC(C)(C)Oc5ccccc54)cc32)C(=N)N1 (stereo not shown)	Potassium voltage-gated channel subfamily KQT member 1, with KCNE1 (KCNQ1, Homo sapiens, UniProt P51787)	IKs current, inhibitor, automated patch clamp	HEK293		> 30
CC(C)(COC(=O)/C=C/c1ccc(Cl)c(Cl)c1)CC1=C(O)C(=O)c2ccccc2C1=O	MAL12 (Saccharomyces cerevisiae S288c, UniProt P53341)	enzyme activity, inhibitor			10
CN(C)c1ccc(-c2cc(CN3c4ccccc4C=Cc4ccccc43)on2)cc1Cl	Urease	enzyme activity, inhibitor			> 27
O=C(Cc1ccc(OCc2ccccc2)cc1)NC1(C(=O)O)CCN(C(=O)c2ccc(-c3cccc(Cl)c3)cc2)CC1	S1PR1	antagonist, GloSensor cAMP			> 10
COc1c(NC(=O)c2ccc(NC(=O)c3ccc(NC(=O)[C@H](CC#N)NC(=O)c4ccc(NC(=O)/C(C)=C/c5ccc(O)cc5)cc4)cc3)c(OC)c2O)ccc(C(=O)O)c1O	gyrA (Escherichia coli K-12, UniProt P0AES4)	enzyme activity, inhibitor			0.11
Cc1cc(NC2CCN(C)CC2)ccc1-c1cc2c(N3CCC[C@H](C(=O)NCc4ccc(OC(F)(F)F)cc4)C3)ncnc2[nH]1	KDR	enzyme activity, inhibitor, mobility shift			2.09
Clc1ccccc1-c1cc(CN2c3ccccc3C=Cc3ccccc32)on1	Urease	enzyme activity, inhibitor			> 27
N[C@@H](CCC(=O)N[C@@H](CS[Se]Cc1ccc(-c2cccc(C(O)c3ccc(Cl)c(Cl)c3)c2)cc1)C(=O)NCC(=O)O)C(=O)O (stereo partly shown)	PTPN2 (Homo sapiens, UniProt P17706)	enzyme activity, inhibitor		with: pNPP, GSH 1 mM	40.2
Cc1cnc(S)n1C	SYK tandem SH2 domains	binding, inhibitor, TR-FRET		with: FITC-FCER1G phospho-ITAM peptide	15 ± 3.5
CCOc1cc(CN2CCC3(CC2)CN(c2ccc(C(=O)O)cc2)C(=O)N3)c(C2CC2)cc1C	SSTR5 (Homo sapiens, UniProt P35346, N100A)	cAMP level, antagonist, GloSensor	AD293	N100A mutant, bandwidth 2.64, with: CST17 EC80 and forskolin	0.0115
COc1ccc(NC(=O)c2cnn(-c3ccc([N+](=O)[O-])cc3)c2C(F)(F)F)cc1OC	PTGS1 (Ovis aries, UniProt P05979)	enzyme activity, inhibitor			5.59
Cc1nc2ccc(Br)cc2c(=O)n1N	XDH (Bos taurus, UniProt P80457)	enzyme activity, inhibitor			159 ± 3.54
CCN1/C(=C/C(C)=O)Sc2ccc(F)cc21	ADRA2B (Homo sapiens, UniProt P18089)	ligand displacement, radioligand			1.4
O=P(O)(O)O[C@H]1[C@H](OP(=O)(O)O)[C@@H](OP(=O)(O)O)[C@@H](O)[C@@H](O)[C@@H]1OP(=O)(O)O	Inositol-tetrakisphosphate 1-kinase (Homo sapiens, UniProt Q13572)	enzyme activity, inhibitor			0.22
CCc1ccc(NS(=O)(=O)c2c(C)[nH]c(C)c2C(=O)N2CCCC2)cc1	DRD2 (Homo sapiens, UniProt P14416)				> 100
C[C@@H](Nc1nc2c(cnn2C(C)(C)C)c(=O)n1Cc1cccc(F)c1)c1ccccn1	PDE1C	enzyme activity, inhibitor, radiometric			0.0004
CC1(F)CN(C(=O)Cn2c(=O)c(C(=O)NCc3ccc(Cl)cc3)cc3nc(N4CCN(CCN)C4=O)cnc32)C1	DNA polymerase catalytic subunit (Human cytomegalovirus, UniProt P08546)	enzyme activity		at least duplicate	0.33
COc1ccc(-c2cnn3ccc(Nc4cc(OC)c(OC)c(OC)c4)nc23)cc1OC	crk3 with CYC6	enzyme activity, inhibitor, radiometric		with: Leishmania major CYC6 cyclin, 1 µM ATP	6
N=C(NCC[C@H](NC(=O)c1noc(-c2cc(F)ccc2F)n1)c1nc2ccccc2[nH]1)c1ccc([N+](=O)[O-])o1	STING1 (Homo sapiens, UniProt Q86WV6, H232R)	reporter gene			1.7
Nc1ncc2c(n1)-c1c([nH]c3ccc(C#CC4CC4)cc13)CCCC2	PAK2 (Homo sapiens, UniProt Q13177)	enzyme activity, inhibitor, radiometric			> 10
O=C(Nc1cc(Cl)ccc1O)c1cnc(-c2ccncc2)s1	SGK1 (Homo sapiens, UniProt O00141, S422D)	kinase activity, inhibitor			12.1 ± 1.11
CC(C)(C)n1ncc2c(=O)n(Cc3cccc(F)c3)c(NCc3ccncc3)nc21	PDE1C	enzyme activity, inhibitor, radiometric			0.0079
